Measured values gathered from unrelated publications.
Each line is one published result; not all experiments were run side by side.

Structure (SMILES) | method | sample | time | pH | temperature | setting | solubility
Cc1[nH]c(C(=O)Nc2ccc(C(=O)NCC(=O)O)cc2N2CCNCC2)c(Cl)c1Cl.Cl | – | PBS | 24 h | pH 7.4 | 25 °C | – | 0.098 mg/mL
Cc1cc(C)c(C#N)c(OCC(=O)c2ccccc2)n1 | – | aqueous buffer | – | pH 7.4 | 25 °C | – | 34 µM
Cc1[nH]c(C(=O)Nc2ccc(-c3n[nH]c(=O)o3)cc2N2CCOC(C)C2)c(Cl)c1Cl (centres unmarked) | – | PBS | 24 h | pH 7.4 | 25 °C | – | < 0.001 mg/mL
COc1ccc2c(O[C@@H]3C[C@H]4C(=O)N[C@]5(C(=O)NS(=O)(=O)C6CC6)C[C@H]5/C=C\CCCCN(C)C(=O)[C@@H]4C3)cc(-c3nc(C(C)C)cs3)nc2c1C | – | aqueous buffer | – | pH 7.4 | – | – | 19 µM
CCCN(Cc1ccccc1OC)C(=O)c1ccc(Br)c(Br)c1 | – | aqueous buffer | 12 h | pH 7.4 | 37 °C | – | 2.59 mg/mL
COc1ccccc1C(=O)CSc1nc(C)cc(C)c1C#N | – | aqueous buffer | – | pH 7.4 | 25 °C | – | < 5 µM
Cc1[nH]c(C(=O)Nc2ccc(-c3n[nH]c(=O)o3)cc2N2CCC[C@H](N)C2)c(Cl)c1Cl.Cl | – | PBS | 24 h | pH 7.4 | 25 °C | – | 0.031 mg/mL
COc1ccc(-c2oc3ccc(-c4ccc5c(c4)OCO5)nc3c2C#CC2(O)CCCCC2)cc1 | – | aqueous buffer | – | – | – | – | < 0.001 mg/mL
Cc1cc(C)c(C#N)c(SCC(=O)N2CCOCC2)n1 | – | aqueous buffer | – | pH 7.4 | 25 °C | – | 113 µM
C[N+](C)(C)CCO.O=C([O-])[C@H](O)Cc1ccccc1 | – | water | – | – | – | – | 1490 mg/mL
C[C@H]1CN(c2n[nH]c3nc(N[C@H]4CC[C@H](NS(=O)(=O)CCC(F)(F)F)CC4)ncc23)CCO1 | – | FaSSIF | 4 h | pH 6.5 | 37 °C | – | 0.017 mg/mL
CC(/C=C/C=C(\C)C(=O)O)=C\C=C\C=C(C)\C=C\C=C(/C)C(=O)O | shake flask | simulated intestinal fluid | 1 h | pH 6.8 | 37 °C | – | 0.012 mg/mL
CCN(Cc1ccccc1OC)C(=O)c1cc(C)c(C)s1 | – | aqueous buffer | 12 h | pH 7.4 | 37 °C | – | 5.92 mg/mL
O=c1[nH]cc(F)c(=O)[nH]1 | shake flask | simulated gastric fluid | – | pH 1.2 | – | acidic | 11.7 mg/mL
Cc1cc(C)c(C(N)=O)c(SCC(=O)c2ccc(F)cc2)n1 | – | aqueous buffer | – | pH 7.4 | 25 °C | – | > 150 µM
COCc1nn(Cc2ccc(Cn3ccccc3=O)cc2)cc1C(=O)NCc1nccc(OC)c1F | – | FaSSIF | 4 h | pH 6.5 | – | – | 0.11 mg/mL
CCn1cc(-c2nc(C)no2)c(=O)c2cc(F)c(N3CCC(C)CC3)cc21 | shake flask | PBS | 2 h | pH 7.4 | 25 °C | – | < 1.2 µM
COc1cc(CO)c(-c2ccc3c(c2O)[C@@H](C)N[C@H](C)C3)c2cccc(O)c12 | shake flask | PBS | 24 h | pH 6.5 | 25 °C | – | 200 µM
CCCN(Cc1ccccc1OC)C(=O)c1cc(F)cc(Br)c1 | – | aqueous buffer | 12 h | pH 7.4 | 37 °C | – | 0.787 mg/mL
CN(C)C(=O)c1cc2cnc(Nc3ccc(N4CCNCC4)cn3)nc2n1C1CCCC1 | – | aqueous buffer | 24 h | pH 6.8 | 37 °C | – | 0.8 mg/mL
CCc1ccc(C(=O)CSc2nc(C)cc(C)c2C#N)cc1 | – | aqueous buffer | – | pH 7.4 | 25 °C | – | < 5 µM
CCCN(Cc1ccccc1OC)C(=O)c1cc2c(s1)CCCC2 | – | aqueous buffer | 12 h | pH 7.4 | 37 °C | – | 5.39 mg/mL
COc1cc(Cc2cnc(N)nc2N)cc(OC)c1OC | shake flask | water | – | – | – | – | 0.488 mg/mL
CCCCN(Cc1ccccc1OC)C(=O)c1cc(C)c(C)s1 | – | aqueous buffer | 12 h | pH 7.4 | 37 °C | – | 0.165 mg/mL
Cc1cc(C)c(C#N)c(SCC(=O)c2cccs2)n1 | – | aqueous buffer | – | pH 7.4 | 25 °C | – | < 5 µM
C=C[C@@H]1C[C@]1(NC(=O)[C@@H]1C[C@@H](Oc2ncc(OC)c3ccc(Cl)cc23)CN1C(=O)[C@@H](NC(=O)OC(C)(C)C)C(C)(C)C)C(=O)NS(=O)(=O)C1CC1 | – | aqueous buffer | – | pH 7.4 | – | – | 160 µM

For quick reference, copied from above:
Structure (SMILES) | method | sample | time | pH | temperature | setting | solubility
Cc1cc(C)c(C(N)=O)c(SCC(=O)c2ccc(F)cc2)n1 | – | aqueous buffer | – | pH 7.4 | 25 °C | – | > 150 µM
C[N+](C)(C)CCO.O=C([O-])[C@H](O)Cc1ccccc1 | – | water | – | – | – | – | 1490 mg/mL
C[C@H]1CN(c2n[nH]c3nc(N[C@H]4CC[C@H](NS(=O)(=O)CCC(F)(F)F)CC4)ncc23)CCO1 | – | FaSSIF | 4 h | pH 6.5 | 37 °C | – | 0.017 mg/mL
Cc1cc(C)c(C#N)c(SCC(=O)N2CCOCC2)n1 | – | aqueous buffer | – | pH 7.4 | 25 °C | – | 113 µM
